# Results from different studies.
# ± marks the error that the study gave.
# ABL1: Tyrosine-protein kinase ABL1 (ABL1, Homo sapiens, UniProt P00519)
Structure (SMILES),target,test,test system,conditions,scale,endpoint,value
CC(=O)N[C@@H](CC(=O)O)C(=O)N[C@@H](CCC(=O)O)C(=O)N[C@H](C(=O)N[C@@H](CC(=O)O)C(=O)Nc1ccc2c(C)cc(=O)oc2c1)C(C)C,"Caspase-1 (CASP1, Homo sapiens, UniProt P29466)","substrate cleavage, substrate, fluorogenic AMC release",,enzyme 0.25 activity units/µL,,Vmax,44.7 ± 15.5 RFU/min
CC(=O)N[C@@H](CC(N)=O)C(=O)N[C@@H](CCCNC(=N)N)C(=O)N[C@@H](CCCNC(=N)N)C(=O)N[C@@H](CC(N)=O)C(=O)N[C@H](C(=O)N[C@@H](C)C(=O)N[C@@H](CC(N)=O)C(=O)N[C@@H](CCN1C(=O)c2ccc(N(C)C)cc2C1=O)C(=O)N[C@@H](CCCNC(=N)N)C(=O)N[C@H](C(=O)N[C@@H](CCCNC(=N)N)C(=O)N1CCC[C@H]1C(=O)N[C@@H](CCCNC(=N)N)C(=O)O)[C@@H](C)O)[C@@H](C)O,"Disks large homolog 4, PDZ3 domain (Homo sapiens, UniProt P78352)","PDZ domain binding, fluorescence emission intensity",PSD-95 PDZ3 domain,4-DMAP-Dab at position -5,baseline: probe without PDZ domain,relative fluorescence increase,1.4
CCC1(CC)C(=O)N(c2cccc(CN3CCN(c4cc(C)nc5ccc(Br)cc45)CC3)c2)C1=O,"Phosphatidylserine lipase ABHD16A (Homo sapiens, UniProt O95870)","probe labelling, inhibitor, competitive ABPP mass spectrometry",U-937 cell lysate,"10 µM, added: FP-biotin 10 µM",baseline: DMSO over compound,SILAC ratio,> 3
COc1cc(C(=O)NC2CCC(N3CCN(CC4CCC5(CCCC5)C4)CC3)CC2)c(F)cc1Nc1ncc2c(n1)N(C1CCCC1(F)F)CC(F)(F)C(=O)N2C (stereo not shown),"CDK5 (Homo sapiens, UniProt Q00535)","cell-free assay, TR-FRET",,10 µM,,inhibition,0.68%
O=P(O)(O)O[C@@H]1[C@@H](O)[C@@H](O[C@@H]2COC[C@@H]2OP(=O)(O)O)O[C@H](CO)[C@H]1OP(=O)(O)O,"Inositol 1,4,5-trisphosphate-gated calcium channel ITPR1, N-terminal region (Itpr1, Rattus norvegicus, UniProt P29994, del318-332)",[3H]IP3 competition binding,,N-terminal fragment,,Hill coefficient,1 ± 0.1
Oc1c(C(Nc2nc3ccccc3s2)c2cccc(OCc3ccccc3)c2)ccc2cccnc12 (stereo not shown),"Genome polyprotein, NS2B-NS3 protease (Dengue virus type 2, UniProt P14340)","substrate, tetrapeptide cleavage",,"1 µM, 37 °C, without ZnCl2",,kcat,0.0952 ± 0.0032 s⁻¹
O=C(Nc1ccc(C(=O)Nc2ccc(C(=O)Nc3ccc(S(=O)(=O)O)c4cc(S(=O)(=O)O)cc(S(=O)(=O)O)c34)cc2)cc1)Nc1ccc(C(=O)Nc2ccc(C(=O)Nc3ccc(S(=O)(=O)O)c4cc(S(=O)(=O)O)cc(S(=O)(=O)O)c34)cc2)cc1,"F10 (Homo sapiens, UniProt P00742)","enzyme activity, inhibitor, FXa chromogenic substrate hydrolysis",,"pH 7.4, 25–37 °C",,Hill slope,1.8 ± 1
COc1cccc(OC)c1OCCCn1cc(CCCNc2nc3c(c(=O)[nH]2)[n+](C)cn3C2OC(COP(=O)(O)OP(=O)([O-])OP(=O)(O)OCC3OC(n4cnc5c(=O)[nH]c(N)nc54)C(O)C3O)C(O)C2O)nn1 (stereo not shown),"NUDT16 (Homo sapiens, UniProt Q96DE0)","cap hydrolysis, substrate, item: analog-capped RNA",,"concentration not given, 30 min",,hydrolysis,2.74%
CC1(C)CCN(Cc2ccc(C(=O)NC[C@]3(O)CCCN(c4cc(NCc5ccccc5)ncn4)C3)c(O)c2)CC1,ABL1,"kinase activity, radiometric",,"10 µM, added: 10 µM ATP",,remaining activity,74%
[3H]C1CCN(S(=O)(=O)c2cc(Cl)c(OC)cc2Cl)CC1[3H] (stereo not shown),"Melanopsin (OPN4, Homo sapiens, UniProt Q9UHM6)",,"CHO cells expressing Opn4, membranes","concentration not given, added: radioligand 300 pM",,specific binding,94%
BP(=O)(OP(=O)([O-])OC[C@H]1O[C@@H](n2c[n+](C)c3c(=O)[nH]c(N)nc32)[C@H](O)[C@@H]1O)OP(=O)([O-])OC[C@H]1O[C@@H](n2c[n+](C)c3c(=O)[nH]c(N)nc32)[C@H](O)[C@@H]1O,"DCPS (Homo sapiens, UniProt Q96C86)","hydrolysis by DcpS, substrate, HPLC",,"15 µM, 10 min, pH 7.6, 20 °C, enzyme 200 nM",,cleavage,2%
CC(=O)N[C@@H](Cc1c[nH]c2ccccc12)C(=O)N[C@@H](Cc1c[nH]c2ccccc12)C(=O)N[C@@H](Cc1c[nH]c2ccccc12)C(=O)N[C@@H](Cc1c[nH]c2ccccc12)C(=O)N[C@@H](Cc1c[nH]c2ccccc12)C(=O)N[C@@H](Cc1c[nH]c2ccccc12)C(=O)N[C@@H](Cc1c[nH]c2ccccc12)C(=O)NCCCC[C@@H]1NC(=O)[C@H](CCCNC(=N)N)NC(=O)[C@H](CCCNC(=N)N)NC(=O)[C@H](CCCNC(=N)N)NC(=O)[C@H](CCCNC(=N)N)NC(=O)[C@H](CCCNC(=N)N)NC1=O,ABL1,"enzyme activity, inhibitor, radiometric",,5 µM,,remaining activity,17.1%
CC(C)CNC(=O)[C@@H](NC[C@@H](O)[C@H](Cc1ccccc1)NC(=O)c1cc(C(=O)N[C@H](C)c2ccccc2)cc(N(C)S(C)(=O)=O)c1)[C@H](C)O,"Beta-secretase 2 (BACE2, Homo sapiens, UniProt Q9Y5Z0)",FRET enzyme,,,baseline: compound over reference inhibitor,potency ratio,~10 fold

# Repeated from above:
Structure (SMILES),target,test,test system,conditions,scale,endpoint,value
O=C(Nc1ccc(C(=O)Nc2ccc(C(=O)Nc3ccc(S(=O)(=O)O)c4cc(S(=O)(=O)O)cc(S(=O)(=O)O)c34)cc2)cc1)Nc1ccc(C(=O)Nc2ccc(C(=O)Nc3ccc(S(=O)(=O)O)c4cc(S(=O)(=O)O)cc(S(=O)(=O)O)c34)cc2)cc1,"F10 (Homo sapiens, UniProt P00742)","enzyme activity, inhibitor, FXa chromogenic substrate hydrolysis",,"pH 7.4, 25–37 °C",,Hill slope,1.8 ± 1
